Assay results pooled from the literature.
Values joined by “and” are separate records of one study, mostly repeats; a detail may differ. ± marks the error that the study gave.
RPA1 N-terminal domain: Replication protein A 70 kDa DNA-binding subunit, N-terminal domain (RPA1, Homo sapiens, UniProt P27694)
E3 ubiquitin-protein ligase NEDD4: E3 ubiquitin-protein ligase NEDD4 (Homo sapiens, UniProt P46934)
Lysophospholipase-like protein 1: Lysophospholipase-like protein 1 (Mus musculus, UniProt Q3UFF7)
GRM4: Metabotropic glutamate receptor 4 (GRM4, Homo sapiens, UniProt Q14833)

By UniProt entry, the sequences of proteins in these tests, tags left out. Residues count along the entry.
UniProt P46934, whole entry, looked up: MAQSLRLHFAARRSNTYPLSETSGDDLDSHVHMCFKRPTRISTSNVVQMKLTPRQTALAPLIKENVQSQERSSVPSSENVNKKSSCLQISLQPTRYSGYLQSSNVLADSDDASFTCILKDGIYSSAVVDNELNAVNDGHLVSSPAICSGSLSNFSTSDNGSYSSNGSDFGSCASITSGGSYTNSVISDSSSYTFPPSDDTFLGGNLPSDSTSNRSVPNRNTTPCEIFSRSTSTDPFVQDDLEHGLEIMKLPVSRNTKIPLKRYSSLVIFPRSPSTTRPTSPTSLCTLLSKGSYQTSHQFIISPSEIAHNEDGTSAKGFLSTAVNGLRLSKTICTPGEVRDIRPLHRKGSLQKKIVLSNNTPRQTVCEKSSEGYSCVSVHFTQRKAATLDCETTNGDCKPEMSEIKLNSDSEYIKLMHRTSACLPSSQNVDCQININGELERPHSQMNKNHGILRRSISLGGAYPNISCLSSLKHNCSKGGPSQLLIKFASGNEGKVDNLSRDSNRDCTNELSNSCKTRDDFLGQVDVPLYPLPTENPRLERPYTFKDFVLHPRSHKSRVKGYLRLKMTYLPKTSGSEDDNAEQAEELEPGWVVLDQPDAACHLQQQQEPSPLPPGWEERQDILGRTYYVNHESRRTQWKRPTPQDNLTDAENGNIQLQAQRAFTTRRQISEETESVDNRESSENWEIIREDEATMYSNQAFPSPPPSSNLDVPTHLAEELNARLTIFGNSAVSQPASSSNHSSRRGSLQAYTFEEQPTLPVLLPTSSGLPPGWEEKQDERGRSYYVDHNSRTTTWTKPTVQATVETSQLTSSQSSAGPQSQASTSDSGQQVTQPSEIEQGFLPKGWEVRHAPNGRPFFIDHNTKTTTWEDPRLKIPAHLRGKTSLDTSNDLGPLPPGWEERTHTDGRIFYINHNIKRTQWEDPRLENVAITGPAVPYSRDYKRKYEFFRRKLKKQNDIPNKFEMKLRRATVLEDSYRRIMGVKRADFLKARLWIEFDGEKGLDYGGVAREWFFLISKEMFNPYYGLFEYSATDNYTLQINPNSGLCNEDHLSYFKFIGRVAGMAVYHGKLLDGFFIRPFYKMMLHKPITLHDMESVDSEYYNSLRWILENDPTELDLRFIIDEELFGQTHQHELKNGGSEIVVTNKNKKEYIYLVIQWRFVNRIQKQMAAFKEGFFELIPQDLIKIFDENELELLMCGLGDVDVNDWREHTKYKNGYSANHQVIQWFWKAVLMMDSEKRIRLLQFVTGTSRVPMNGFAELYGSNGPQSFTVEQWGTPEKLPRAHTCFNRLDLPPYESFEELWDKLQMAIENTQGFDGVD
UniProt Q3UFF7, whole entry: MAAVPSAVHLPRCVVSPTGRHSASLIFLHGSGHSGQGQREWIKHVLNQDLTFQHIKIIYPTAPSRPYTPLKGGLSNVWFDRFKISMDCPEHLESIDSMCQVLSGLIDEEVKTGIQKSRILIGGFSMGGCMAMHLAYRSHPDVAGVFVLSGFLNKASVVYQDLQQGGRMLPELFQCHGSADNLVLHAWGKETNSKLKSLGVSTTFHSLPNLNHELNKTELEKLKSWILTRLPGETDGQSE
UniProt Q14833, 33-912 limits assumed: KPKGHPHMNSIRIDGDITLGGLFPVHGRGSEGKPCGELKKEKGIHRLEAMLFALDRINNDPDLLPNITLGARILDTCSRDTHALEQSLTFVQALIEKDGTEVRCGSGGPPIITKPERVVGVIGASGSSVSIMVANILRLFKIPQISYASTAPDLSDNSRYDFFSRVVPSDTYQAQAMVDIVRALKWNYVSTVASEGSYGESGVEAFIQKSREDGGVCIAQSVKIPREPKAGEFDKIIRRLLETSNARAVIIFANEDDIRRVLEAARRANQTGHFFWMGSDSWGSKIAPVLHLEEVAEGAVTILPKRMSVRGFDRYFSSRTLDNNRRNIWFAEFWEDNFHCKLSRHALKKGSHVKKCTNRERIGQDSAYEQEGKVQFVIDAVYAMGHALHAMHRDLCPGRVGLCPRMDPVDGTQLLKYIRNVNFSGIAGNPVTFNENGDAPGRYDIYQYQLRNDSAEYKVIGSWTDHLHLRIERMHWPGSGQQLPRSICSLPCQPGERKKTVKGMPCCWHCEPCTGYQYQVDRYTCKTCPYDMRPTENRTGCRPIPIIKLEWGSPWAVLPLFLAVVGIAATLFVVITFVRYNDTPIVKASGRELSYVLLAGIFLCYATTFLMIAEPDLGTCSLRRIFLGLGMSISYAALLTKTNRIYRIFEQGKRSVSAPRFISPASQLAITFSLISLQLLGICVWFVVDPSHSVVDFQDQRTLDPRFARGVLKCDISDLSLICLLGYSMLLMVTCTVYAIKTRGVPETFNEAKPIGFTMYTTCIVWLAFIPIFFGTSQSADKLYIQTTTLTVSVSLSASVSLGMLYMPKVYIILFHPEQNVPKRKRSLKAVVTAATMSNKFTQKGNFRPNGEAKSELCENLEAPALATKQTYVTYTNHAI
UniProt Q5VWZ2, whole entry: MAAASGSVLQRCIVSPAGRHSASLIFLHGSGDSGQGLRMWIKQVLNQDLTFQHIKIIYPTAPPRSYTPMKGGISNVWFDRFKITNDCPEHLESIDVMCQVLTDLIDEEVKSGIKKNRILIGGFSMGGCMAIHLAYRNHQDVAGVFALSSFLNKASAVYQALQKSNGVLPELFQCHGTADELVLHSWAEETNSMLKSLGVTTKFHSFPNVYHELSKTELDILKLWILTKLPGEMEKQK
UniProt P05067, 672-713 limits assumed: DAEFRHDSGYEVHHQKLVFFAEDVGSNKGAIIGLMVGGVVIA
UniProt P05067, whole entry, looked up: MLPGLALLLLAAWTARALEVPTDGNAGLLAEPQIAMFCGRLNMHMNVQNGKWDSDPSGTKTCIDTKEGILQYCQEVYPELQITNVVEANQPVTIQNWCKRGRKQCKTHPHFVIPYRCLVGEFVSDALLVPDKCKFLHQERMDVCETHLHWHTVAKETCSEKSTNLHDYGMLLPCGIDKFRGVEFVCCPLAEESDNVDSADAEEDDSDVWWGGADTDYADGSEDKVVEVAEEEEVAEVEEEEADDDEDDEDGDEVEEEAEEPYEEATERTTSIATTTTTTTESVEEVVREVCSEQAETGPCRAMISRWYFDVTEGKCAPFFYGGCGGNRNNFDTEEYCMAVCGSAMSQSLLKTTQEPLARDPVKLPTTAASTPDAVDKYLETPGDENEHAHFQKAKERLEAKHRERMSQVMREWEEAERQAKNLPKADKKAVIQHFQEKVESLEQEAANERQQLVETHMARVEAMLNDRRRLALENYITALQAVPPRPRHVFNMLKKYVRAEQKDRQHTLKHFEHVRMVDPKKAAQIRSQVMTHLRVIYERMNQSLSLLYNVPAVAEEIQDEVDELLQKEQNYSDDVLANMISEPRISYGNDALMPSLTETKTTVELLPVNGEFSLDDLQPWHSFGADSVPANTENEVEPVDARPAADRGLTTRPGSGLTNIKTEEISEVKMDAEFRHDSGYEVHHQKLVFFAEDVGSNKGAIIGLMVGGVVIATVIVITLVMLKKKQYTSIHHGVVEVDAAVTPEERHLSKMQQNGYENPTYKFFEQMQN
UniProt O95619, whole entry: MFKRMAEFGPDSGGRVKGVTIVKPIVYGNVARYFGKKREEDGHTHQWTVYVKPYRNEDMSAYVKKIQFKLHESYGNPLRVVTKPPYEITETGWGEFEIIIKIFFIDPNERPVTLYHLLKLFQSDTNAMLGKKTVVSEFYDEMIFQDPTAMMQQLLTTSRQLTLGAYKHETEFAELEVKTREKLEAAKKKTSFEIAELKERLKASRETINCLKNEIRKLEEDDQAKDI
UniProt P21462, whole entry: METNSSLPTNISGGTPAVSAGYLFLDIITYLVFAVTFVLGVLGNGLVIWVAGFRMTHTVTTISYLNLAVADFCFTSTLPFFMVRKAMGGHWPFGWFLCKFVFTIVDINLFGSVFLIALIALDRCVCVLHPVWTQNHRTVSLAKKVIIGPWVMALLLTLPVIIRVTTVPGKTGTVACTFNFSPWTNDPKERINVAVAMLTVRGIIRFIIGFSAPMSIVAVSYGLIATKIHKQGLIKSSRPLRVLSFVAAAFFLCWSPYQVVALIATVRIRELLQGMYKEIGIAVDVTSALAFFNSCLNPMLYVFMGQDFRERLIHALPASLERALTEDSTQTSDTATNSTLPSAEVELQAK
UniProt Q99797, 36-713 limits assumed: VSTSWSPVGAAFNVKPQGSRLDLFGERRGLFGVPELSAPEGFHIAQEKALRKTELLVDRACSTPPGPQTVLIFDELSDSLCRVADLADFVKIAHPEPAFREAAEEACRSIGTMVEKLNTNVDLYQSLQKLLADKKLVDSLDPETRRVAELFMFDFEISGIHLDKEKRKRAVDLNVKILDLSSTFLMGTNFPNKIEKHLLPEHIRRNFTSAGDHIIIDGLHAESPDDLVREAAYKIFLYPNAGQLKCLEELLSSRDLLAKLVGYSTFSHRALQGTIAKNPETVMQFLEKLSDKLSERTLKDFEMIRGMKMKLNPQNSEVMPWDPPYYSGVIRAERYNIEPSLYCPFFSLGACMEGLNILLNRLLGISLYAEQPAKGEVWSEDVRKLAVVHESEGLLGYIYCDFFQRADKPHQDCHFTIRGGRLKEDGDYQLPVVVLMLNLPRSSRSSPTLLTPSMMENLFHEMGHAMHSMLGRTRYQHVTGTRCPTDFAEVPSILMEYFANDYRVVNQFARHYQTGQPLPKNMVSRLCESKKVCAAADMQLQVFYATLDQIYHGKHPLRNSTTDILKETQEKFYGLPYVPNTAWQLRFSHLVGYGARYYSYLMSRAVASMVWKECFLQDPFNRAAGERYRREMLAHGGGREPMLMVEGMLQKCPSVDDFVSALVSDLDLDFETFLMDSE
UniProt Q9GZT9, whole entry: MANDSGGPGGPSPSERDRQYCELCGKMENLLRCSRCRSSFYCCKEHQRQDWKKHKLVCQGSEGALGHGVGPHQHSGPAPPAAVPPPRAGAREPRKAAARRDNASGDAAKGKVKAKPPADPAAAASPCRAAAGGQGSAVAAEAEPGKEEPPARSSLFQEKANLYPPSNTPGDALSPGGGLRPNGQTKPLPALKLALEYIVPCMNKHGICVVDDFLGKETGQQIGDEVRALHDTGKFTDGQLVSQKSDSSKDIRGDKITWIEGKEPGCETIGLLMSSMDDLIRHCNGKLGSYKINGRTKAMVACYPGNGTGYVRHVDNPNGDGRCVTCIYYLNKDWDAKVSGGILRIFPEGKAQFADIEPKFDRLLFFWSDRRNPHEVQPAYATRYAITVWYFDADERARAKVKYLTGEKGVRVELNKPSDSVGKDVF
UniProt Q9UDY8, whole entry: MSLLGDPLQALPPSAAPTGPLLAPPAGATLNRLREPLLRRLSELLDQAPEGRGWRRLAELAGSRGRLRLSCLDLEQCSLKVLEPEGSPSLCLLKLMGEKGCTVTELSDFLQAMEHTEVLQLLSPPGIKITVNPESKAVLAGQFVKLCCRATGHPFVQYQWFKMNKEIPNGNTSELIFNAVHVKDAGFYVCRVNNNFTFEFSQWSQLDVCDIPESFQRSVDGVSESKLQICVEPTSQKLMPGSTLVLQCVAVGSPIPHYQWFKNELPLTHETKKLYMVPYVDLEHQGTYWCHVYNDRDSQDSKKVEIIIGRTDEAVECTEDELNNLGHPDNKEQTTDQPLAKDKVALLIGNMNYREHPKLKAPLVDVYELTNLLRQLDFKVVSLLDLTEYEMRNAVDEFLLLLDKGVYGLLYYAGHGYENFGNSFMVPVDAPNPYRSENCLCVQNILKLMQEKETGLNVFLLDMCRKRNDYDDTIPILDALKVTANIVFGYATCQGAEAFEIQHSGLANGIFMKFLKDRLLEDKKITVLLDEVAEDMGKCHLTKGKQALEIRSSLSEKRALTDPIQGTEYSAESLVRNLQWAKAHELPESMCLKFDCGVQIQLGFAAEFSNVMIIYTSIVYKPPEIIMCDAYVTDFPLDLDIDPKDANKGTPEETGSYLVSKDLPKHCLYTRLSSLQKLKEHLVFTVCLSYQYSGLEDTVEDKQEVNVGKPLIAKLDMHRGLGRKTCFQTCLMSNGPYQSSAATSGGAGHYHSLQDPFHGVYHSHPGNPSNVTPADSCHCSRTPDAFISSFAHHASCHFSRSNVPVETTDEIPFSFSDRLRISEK
UniProt O00519, whole entry: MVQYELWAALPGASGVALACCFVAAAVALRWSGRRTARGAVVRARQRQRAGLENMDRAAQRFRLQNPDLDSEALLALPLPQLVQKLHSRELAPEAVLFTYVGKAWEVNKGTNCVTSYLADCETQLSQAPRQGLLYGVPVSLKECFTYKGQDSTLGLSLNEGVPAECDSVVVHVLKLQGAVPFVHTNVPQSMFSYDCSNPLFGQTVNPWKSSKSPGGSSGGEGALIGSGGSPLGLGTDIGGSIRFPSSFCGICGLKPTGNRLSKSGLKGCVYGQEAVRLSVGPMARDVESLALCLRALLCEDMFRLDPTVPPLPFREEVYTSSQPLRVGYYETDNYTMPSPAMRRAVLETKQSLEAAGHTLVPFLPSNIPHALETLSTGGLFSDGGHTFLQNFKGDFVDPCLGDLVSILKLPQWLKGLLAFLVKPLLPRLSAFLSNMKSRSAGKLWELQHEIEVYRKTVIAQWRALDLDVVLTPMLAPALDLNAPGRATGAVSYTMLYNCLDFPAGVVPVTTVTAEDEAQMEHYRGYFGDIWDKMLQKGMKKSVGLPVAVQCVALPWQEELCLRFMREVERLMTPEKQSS

| Structure (SMILES) | target or system | assay | system | conditions | scale | quantity | value |
| --- | --- | --- | --- | --- | --- | --- | --- |
| Cc1cc(NS(=O)(=O)c2cc(C(=O)Nc3ccccc3C(=O)O)ccc2C)ccc1Cl | RPA1 N-terminal domain | binding, fluorescence polarisation competition |  | together with: FITC-ATRIP probe |  | ligand efficiency | 0.18 |
| CCOC(=O)/C=C/CNCCCCN1c2ccccc2CCc2ccc(Cl)cc21 | E3 ubiquitin-protein ligase NEDD4 | inhibitor, Ub-TR-FRET |  | 0.04572 µM, 1 h preincubation, HECT domain, together with: ATP 2 mM | higher = more ubiquitination | ubiquitination TR-FRET signal AUC | 92500 a.u. and 88500 a.u. and 140000 a.u. and 78100 a.u. and 79800 a.u. and 83200 a.u. |
| CC(=O)N[C@@H](CCC(N)=O)C(=O)N[C@H](C(=O)N[C@@H](C)C(=O)N[C@@H](CCCNC(=N)N)C(=O)N[C@@H](CCCCNC(=O)CCc1ccc(N=Nc2ccc(N(C)C)cc2)cc1)C(=O)N[C@@H](CO)C(=O)N[C@H](C(=O)NCC(=O)NCC(=O)NCCCNC(=S)Nc1ccc2c(c1)C(=O)OC21c2ccc(O)cc2Oc2cc(O)ccc21)[C@@H](C)O)[C@@H](C)O | SIRT3 (Homo sapiens, UniProt Q9NTG7) | substrate, fluorescence kinetics |  | 60 nM enzyme |  | kcat/Km | 250 M⁻¹ s⁻¹ |
| CCOC(=O)/C=C/CNCCCN1c2ccccc2CCc2ccc(Br)cc21 | E3 ubiquitin-protein ligase NEDD4 | inhibitor, Ub-TR-FRET |  | 0.005081 µM, 1 h preincubation, HECT domain, together with: ATP 2 mM | higher = more ubiquitination | ubiquitination TR-FRET signal AUC | 148000 a.u. and 145000 a.u. |
| Nc1ncnc2c1c(-c1ccc(C(=O)Nc3cc(C4CC4)ccn3)cc1)nn2[C@@H]1CCCN(C(=O)C2CC2)C1 | Tyrosine-protein kinase BTK, non-phosphorylated (BTK, Homo sapiens, UniProt Q06187) | TR-FRET binding kinetics |  | 37 °C, unphosphorylated protein |  | koff | 0.00434 ± 0.00032 s⁻¹ |
| CCCCCCCCCCCCCC[C@@H](O)[C@@H](O)[C@H](CO[C@H]1O[C@H](CO)[C@H](O)[C@H](O)[C@H]1O)NC(=O)CCCCCCCCCCc1ccccc1 | Cd1d1, dimeric Ig fusion (Mus musculus, UniProt P11609) | ligand, competitive microarray binding |  | concentration not given | reference: α-GalCer, higher = stronger binding | binding affinity | ~1 orders of magnitude |
| COc1ccc(S(=O)(=O)n2nc(SCc3ccc(Cl)cc3)nc2N)cn1 | Lysophospholipase-like protein 1 | activator, gel-based ABPP FP-rhodamine |  |  | reference: DMSO | probe labelling | 2 fold |
| COc1cc([C@@H]2c3cc4c(cc3C=C(C=O)[C@H]2C(=O)OCCCn2cnc3c(Cl)ncnc32)OCO4)cc(OC)c1OC | Leishmania infantum | iRFP fluorescence | mouse splenocytes infected, amastigote, iRFP, ex vivo splenic explant | 48 h |  | EC50 | 56.3 ± 1.4 µM |
| CC(C)Oc1cc(C(=O)N2CCC(N3CCN(C)CC3)CC2)ccc1Nc1ncc2c(n1)N(C1CCCC1)c1ccccc1C(=O)N2C | non-BET bromodomains | BROMOscan |  | 10 µM |  | binding | no binding |
| Nc1nc(SCc2ccc(Cl)cc2)nn1S(=O)(=O)c1cccc2nonc12 | LYPLAL1 (Homo sapiens, UniProt Q5VWZ2) | activator, gel-based ABPP | purified protein |  | reference: DMSO | FP-rhodamine labelling | 3 fold |
| O=C(/C=C/c1ccc(O)c(OC(F)(F)F)c1)C1=C(/C=C/c2ccc(O)c(OC(F)(F)F)c2)OCCC1 | APP (Homo sapiens, UniProt P05067) | SDS-PAGE western blot, item: Aβ1-42 species 75-200 kDa |  | 30 µM, 24 h, 37 °C, together with: Aβ 10 µM | reference: DMSO control | Aβ band density | 7330 ± 908% |
| O=C(Nc1ccc(C(=O)N2CC(c3nccs3)C2)s1)[C@@H]1CCCN1 | YEATS domain-containing protein 4 (Homo sapiens, UniProt O95619) | thermal shift |  | concentration not given, 5 µM protein | reference: vehicle | melting temperature shift | ~3 °C |
| CC(=O)NCCCC[C@H](NC(=O)CNC(=O)[C@H](CC(C)C)NC(C)=O)C(=O)Nc1ccc2c(C)cc(=O)oc2c1 | Histone deacetylase 3/Nuclear receptor corepressor 2 (HDAC3/NCoR2) (Homo sapiens, UniProt O15379+Q9Y618) | substrate |  | pH 7.4, 25 °C |  | kcat/Km | > 100000 M⁻¹ s⁻¹ |
| COc1ccc(NC(=O)CN2CCCN(S(=O)(=O)c3ccc(C(F)(F)F)cc3)CC2)c(OC)c1 | GRM4 | calcium mobilization, positive allosteric modulator | CHO cells with Gqi5 | together with: glutamate | reference: PHCCC maximal response | maximal response | 26.6% |
| O=C(O)CC[C@H](NC(=O)c1cc(C(=O)O)cc([C@H]2CCN[C@@H]2C(=O)O)c1)C(=O)O | Glutamate receptor ionotropic, kainate 3 (Rattus norvegicus, UniProt P42264) | radioligand binding | Sf9 membranes | 10 µM, homomeric receptor, together with: [3H]kainate |  | specific binding | 86 ± 3% |
| CCOc1ccc(NC(=O)CSc2nc3ccc(OCC)cc3[nH]2)cc1 | FPR1 (Homo sapiens, UniProt P21462) | calcium mobilization, agonist | HL-60 transfected with FPR1 | concentration not given |  | activity | inactive |
| O=C(Nc1ccc(F)cc1)C12CC1/C(=N\O)c1ccccc1O2 (stereo not shown) | GRM4 | positive allosteric modulator, calcium mobilization | CHO expressing Gqi5 | concentration not given, together with: glutamate EC20 | reference: (±)-PHCCC | response | 71.6 ± 5.1% |

| Structure (SMILES) | target or system | assay | system | conditions | scale | quantity | value |
| --- | --- | --- | --- | --- | --- | --- | --- |
| Nc1nc(NCCc2ccc(Cl)cc2)nn1S(=O)(=O)c1cccc(Cl)c1 | Lysophospholipase-like protein 1 | activator, gel-based ABPP FP-rhodamine |  |  | reference: DMSO | probe labelling | 1.2 fold |
| CC(C)(C)Nc1c(-c2ccc3c(c2)C(=O)N(C2CCC(=O)NC2=O)C3)nc2ccccn12 (stereo not shown) | WEE1/CRBN (Homo sapiens, UniProt P30291+Q96SW2) | degrader, HiBiT | Jurkat | 5 h |  | Dmax | < 5% |
| CCOC(=O)/C=C/CNCCCCCN1c2ccccc2CCc2ccc(Cl)cc21 | E3 ubiquitin-protein ligase NEDD4 | inhibitor, Ub-TR-FRET |  | 0.01524 µM, 1 h preincubation, HECT domain, together with: ATP 2 mM | higher = more ubiquitination | ubiquitination TR-FRET signal AUC | 71500 a.u. and 98700 a.u. and 70400 a.u. and 70100 a.u. and 98500 a.u. and 101000 a.u. |
| CCCCNCC1=Cc2cc3c(cc2[C@@H](c2cc(OC)c(OC)c(OC)c2)[C@@H]1C(=O)OC)OCO3 | Leishmania infantum | Alamar Blue | HepG2 |  | reference: CC50 HepG2 over EC50 amastigotes | selectivity index | 0.2 |
| NC(=O)c1cn(-c2ccc(F)cc2)c2ccc(CN3CCCOCC3)cc2c1=O | Grm2 (Rattus norvegicus, UniProt P31421) | calcium mobilization, negative allosteric modulator |  | 30 µM, together with: glutamate 100 µM | reference: glutamate maximum | response | 24.2 ± 3.6% |
| CCn1c(-c2cc(NC(=O)c3cnccn3)n[nH]2)cc2ccc(OC)cc21 | CSNK2A2 (Homo sapiens, UniProt P19784) | enzyme activity, inhibitor |  |  |  | maximal inhibition | 94.2% |
| CC(=O)Nc1ncc(CN2CC[C@H](Oc3cccc(F)n3)C[C@@H]2C)s1 [isotope labelled] | Protein O-GlcNAcase (Macaca mulatta, UniProt F6QIP2) | autoradiography | rhesus monkey hippocampus sections | 5 nM, radiolabelled compound |  | specific binding | 10.3 nCi/mg |
| CC[C@H](C)[C@H](NC(=O)c1ccccc1N)C(=O)N[C@@H](CCCCN)C(=O)N[C@@H](CCC(N)=O)C(=O)N[C@@H](CO)C(=O)N[C@@H](CO)C(=O)N[C@@H](CC(C)C)C(=O)N[C@@H](CC(C)C)C(=O)N[C@@H](CCCCNc1ccc([N+](=O)[O-])cc1[N+](=O)[O-])C(N)=O | Mitochondrial intermediate peptidase (MIPEP, Homo sapiens, UniProt Q99797) | substrate, FRET peptide hydrolysis |  |  |  | kcat/Km | 50000 M⁻¹ s⁻¹ |
| COC(=O)[C@@]1(C)C=C(C(=O)Nc2cccc(C(=O)NC34CC(Nc5nccc(-c6cccnc6)n5)(C3)C4)c2)C(=O)CC1 | MAPK9 (Homo sapiens, UniProt P45984) | enzyme activity, inhibitor |  | 4.938 µM |  | remaining activity | 0.0639 fraction of control |
| CC(C)(Cn1cc(-c2ccc(CO)cc2)nn1)c1c[nH]c2ccccc12 | GLP1R (Homo sapiens, UniProt P43220) | cAMP accumulation, positive allosteric modulator, HTRF |  | 0.6 µM, purified compound, together with: GLP-1(9-36) at EC20 | reference: BETP | Emax | 102 ± 4% |
| OC[C@@H]1[C@@H](O)[C@H](O)[C@@H](O)CN1CCCCCOCc1ccc(-c2cccnc2)cc1 | Beta-glucosidase (GBA2, Homo sapiens, UniProt Q9HCG7) |  |  |  | reference: GCS IC50 over GBA2 IC50 | selectivity ratio | 200 |
| Cc1ccc(C(=O)Nc2ccccc2C(=O)O)cc1S(=O)(=O)NC1CCCCC1 | RPA1 N-terminal domain | binding, fluorescence polarisation competition |  | together with: FITC-ATRIP probe |  | ligand efficiency | 0.18 |
| O=C(O)c1ccnc(C(=O)O)c1Nc1ccc(F)cc1F | Egl nine homolog 1 (EGLN1, Homo sapiens, UniProt Q9GZT9) | inhibitor, HTRF |  | 400 µM |  | remaining activity | 100% |
| CC(=O)N[C@@H](C)C(=O)N[C@@H](CC(C)C)C(=O)N[C@H](C(=O)N[C@@H](CO)C(=O)N[C@@H](CCCNC(=N)N)C(=O)Nc1ccc2c(CC(N)=O)cc(=O)oc2c1)C(C)C | MALT1 (Homo sapiens, UniProt Q9UDY8) | substrate, fluorogenic peptide hydrolysis |  | pH 7.5, enzyme 399 nM, citrate 0.9 M |  | kcat/Km | 8400 M⁻¹ s⁻¹ |
| Cc1cc(NC(=O)c2cccc(NC(=O)C3=CC(C)(C)CCC3=O)c2)ccc1Nc1nccc(-c2cccnc2)n1 | MAPK8 (Homo sapiens, UniProt P45983) | kinase activity, inhibitor |  | 0.02032 µM, unit not given, together with: 10 mM GSH | reference: DMSO | remaining activity | 0.873 |
| COC(=O)/C(=C/c1c[nH]c2ccc(OC)cc12)c1ccc(NS(C)(=O)=O)cc1 | Amyloid-beta precursor protein, Aβ1-40 (APP, Homo sapiens, UniProt P05067) | Aβ40 aggregation, thioflavin T fluorescence |  | 25 µM |  | inhibition | 0% |
| O=C(OC(C(F)(F)F)C(F)(F)F)N1CC(OC(c2ccccc2)c2ccccc2)C1 | FAAH (Homo sapiens, UniProt O00519) | enzyme activity, inhibitor, fluorescence AAMCA substrate |  | 1 µM |  | activity | inactive |

Some of these lines once more:
| Structure (SMILES) | target or system | assay | system | conditions | scale | quantity | value |
| --- | --- | --- | --- | --- | --- | --- | --- |
| Cc1cc(NS(=O)(=O)c2cc(C(=O)Nc3ccccc3C(=O)O)ccc2C)ccc1Cl | RPA1 N-terminal domain | binding, fluorescence polarisation competition |  | together with: FITC-ATRIP probe |  | ligand efficiency | 0.18 |
| CCOC(=O)/C=C/CNCCCN1c2ccccc2CCc2ccc(Br)cc21 | E3 ubiquitin-protein ligase NEDD4 | inhibitor, Ub-TR-FRET |  | 0.005081 µM, 1 h preincubation, HECT domain, together with: ATP 2 mM | higher = more ubiquitination | ubiquitination TR-FRET signal AUC | 148000 a.u. and 145000 a.u. |
